Results of several laboratories.
Each numbered part is a random draw from the data of one study; scales do not carry over between parts.

Series 1 — technique: universal PBM; molecule type: double-stranded DNA, one strand shown; medium: in vitro; tested at: not given; reading: higher = stronger binding
Target: Sal-like protein 4, full length isoform B (SALL4, Homo sapiens, UniProt Q9UJQ4-2, residues 1-616)
Setting: 8-mer, flanks averaged, mean of replicates
Target sequence (chain): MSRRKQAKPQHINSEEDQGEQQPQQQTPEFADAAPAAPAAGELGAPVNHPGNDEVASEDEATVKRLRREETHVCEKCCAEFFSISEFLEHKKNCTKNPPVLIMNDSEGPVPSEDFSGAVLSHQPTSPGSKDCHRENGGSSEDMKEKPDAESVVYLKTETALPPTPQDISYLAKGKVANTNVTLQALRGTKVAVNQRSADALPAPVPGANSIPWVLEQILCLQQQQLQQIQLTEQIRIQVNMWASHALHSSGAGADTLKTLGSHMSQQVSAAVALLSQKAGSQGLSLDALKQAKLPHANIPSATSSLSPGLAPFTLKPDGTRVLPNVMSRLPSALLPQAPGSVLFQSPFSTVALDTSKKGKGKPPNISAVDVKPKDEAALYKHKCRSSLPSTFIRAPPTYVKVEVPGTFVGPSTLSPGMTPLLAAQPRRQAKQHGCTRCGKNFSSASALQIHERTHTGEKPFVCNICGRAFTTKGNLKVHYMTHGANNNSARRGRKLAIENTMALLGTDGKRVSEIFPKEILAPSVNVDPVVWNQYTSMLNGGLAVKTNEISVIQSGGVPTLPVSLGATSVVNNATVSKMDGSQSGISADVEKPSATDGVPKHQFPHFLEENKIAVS
`ACGAGAGG` gave an E-score of -0.0907.
The E-score of `AAATCACA` is reported as 0.0648.
With `CGTGAGTC` the E-score was -0.212.
`ATGTCACA` has an E-score of 0.189.
`GGACCTCA` has an E-score of -0.182.
`ATCGTGGA` gave an E-score of 0.0262.
`CAACGGGC` has an E-score of -0.114.
`AACTGCAA` gave an E-score of -0.0683.
`CCAGCGAG` gave an E-score of -0.275.
For `GGCTATTA`, the E-score was 0.127.
`AGACTCCA` has an E-score of -0.175.
The E-score of `AGGGTTTG` is reported as -0.127.
With `CCACAGTC` the E-score was -0.202.
`GAGAGCTA` has an E-score of -0.0311.
`GACTGCCC` gave an E-score of -0.258.
The E-score of `CGTAGCTA` is reported as -0.156.
`AAGAAGTA` has an E-score of 0.0882.
For `CGCGCTAC`, the E-score was -0.0369.
`GAAGGACA` gave an E-score of 0.0706.
The E-score of `ATGATCAG` is reported as 0.217.
The E-score of `TTTTAAAA` is reported as 0.288.
`GTTAAGCA` gave an E-score of 0.00882.
With `CTTCATGC` the E-score was -0.107.
`ATACGGGA` has an E-score of -0.0473.
`AAAGCGGG` gave an E-score of -0.103.

Series 2 — technique: protein binding microarray; molecule type: double-stranded DNA, one strand shown; medium: in vitro; tested at: not given; relative to: not given; reading: higher = stronger binding
Target: Histone acetyltransferase KAT6A, winged helix 1, GST fusion (KAT6A, Homo sapiens, UniProt Q92794, residues 1-85)
Setting: 8-mer, flanks averaged, mean of 2 arrays, mostly near background
Construct (chain): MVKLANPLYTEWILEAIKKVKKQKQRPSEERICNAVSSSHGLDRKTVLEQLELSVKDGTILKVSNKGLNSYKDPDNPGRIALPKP
`TAAAGGGA` has an E-score of -0.00936.
With `CGGCACAG` the E-score was 0.261.
`AGAACATA` gave an E-score of 0.0109.
For `CTTGGGAC`, the E-score was -0.222.
`ATTGTCTA` gave an E-score of -0.0745.
For `GGCGACCA`, the E-score was 0.199.
For `CGGTGACA`, the E-score was -0.0677.
With `AGCCCTAC` the E-score was 0.0425.
For `CAACCTCA`, the E-score was -0.246.
`ATGGTTAA` gave an E-score of -0.0604.
For `CCGGTACA`, the E-score was 0.174.
The E-score of `CAACAATA` is reported as -0.117.
The E-score of `ACTTCAAG` is reported as -0.161.
With `TAATACAA` the E-score was -0.171.
`TAAGGGAA` has an E-score of -0.187.
The E-score of `CACAAAGC` is reported as -0.0194.
The E-score of `ACACACTA` is reported as -0.0298.
The E-score of `ATGAACAC` is reported as -0.255.
`AAATAGGC` has an E-score of 0.00396.
`TAACTTGA` has an E-score of -0.263.
With `CGCCCATA` the E-score was 0.145.
`AACCACGA` has an E-score of -0.0856.
The E-score of `GCGTGCCA` is reported as 0.206.
The E-score of `AACGCAAA` is reported as 0.0821.
With `GGTTGGCA` the E-score was -0.197.

Series 3 — technique: RNA Bind-n-Seq; molecule type: RNA; medium: in vitro; tested at: 200 nM; setting: whole 134-nt RNA, ends assumed; together with: 150 mM LiCl; relative to: input library; reading: higher = stronger binding; all molecules: 7-deaza-guanosine replaces G
Target: Fragile X messenger ribonucleoprotein 1, C-terminal low-complexity region (Fmr1, Mus musculus, UniProt P35922)
Shared flanks, not repeated: GGGAGUUCUACAGUCCGACGAUC … UGGAAUUCUCGGGUGUCAAGG
The log2 enrichment of `AAGUCCUGUGCUACACAUCGUAUGUACCGAAUCGGGAAAAGGGAAAAGGGGAAAAGGAAAGUAUUAUGUUACGCCGUUCGGAUCUGCACU` is reported as 0.00885.
For `CCUGUGCUACACAUCGUAUGUACCGAAUCGGCCCCCCCGGCCCCCCCGGGCCCCCCCGGGGAAAGUAUUAUGUUACGCCGUUCGGAUCUG`, the log2 enrichment was 0.768.
With `AAGUCCUGUGCUACACAUCGUAUGUACCGAAUCGGGGAGGGGUUUUUGGGGAGGGGAAAGUAUUAUGUUACGCCGUUCGGAUCUGCACUU` the log2 enrichment was 0.431.
For `UGGCCCUGGUGGCAUGCGGGGAGGAAGAGGUGGCCUCAUGGAUCGUGGUGGUCCCAGUGGAAUGUUCAGAGGUGGCCGUGGUGGAGACAG`, the log2 enrichment was -0.142.
For `AAGUCCUGUGCUACACAUCGUAUGUACCGAAUCGGGAAAAAGGAAAAAGGAAAAAGGAAAGUAUUAUGUUACGCCGUUCGGAUCUGCACU`, the log2 enrichment was -0.872.
With `GCAGGAAGUAAAAACAAAUGGAAAUGCUUCGGAUAGUGGCAGGUGUGGGGGUUGCUAAGGAAAGGGUGGGAUGGGAGUGGGUAAAGAGUU` the log2 enrichment was 1.62.
For `CAAGUCCUGUGCUACACAUCGUAUGUACCGAAUCGGAAAGGUUUUUUUGGUUUGGAAAGUAUUAUGUUACGCCGUUCGGAUCUGCACUUC`, the log2 enrichment was -2.99.
The log2 enrichment of `CAUAGACAACACGCACCCACACAGACACAGAGGGAAGGGGUUGGGAUGGGGACAGGGUGCACAGCAGGGCGGGGUAGGACCCCAGCCCCU` is reported as 0.711.

Series 4 — technique: RNA Bind-n-Seq; molecule type: RNA; medium: in vitro; tested at: 365 nM; relative to: no-protein control; reading: higher = stronger binding
Target: RNA binding protein fox-1 homolog 2, RRM domain, GST-SBP tag (RBFOX2, Homo sapiens, UniProt O43251-10, residues 100-194)
Setting: natural RNA segment, single round, ends assumed
Shared flanks, not repeated: GGGAGUUCUACAGUCCGACGAUC … UGGAAUUCUCGGGUGCCAA
Target sequence (chain): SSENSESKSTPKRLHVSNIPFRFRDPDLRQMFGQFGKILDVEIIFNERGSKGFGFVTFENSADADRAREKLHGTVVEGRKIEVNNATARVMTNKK
For `CCUGGACAACAAGAGCGAAACUCCGUCUUAGAAGUGGACCAGGACAGGACCAGAUUUUGGAGUCAUGGUCCGGUGUCCUUUUCACUACACCAUGUUUGAGCUCAGACCCC`, “RBNS enrichment (R)” read 0.333.
`CAAGGAGGCUCUGCACAGCUCACUUGUGGGGAAGACGGGACAUGCUUCCAGAUUUUCUUUGGGGGUUAGAAGGUCGGAUGUGGAGUUGACACUUGUUAGUCUCUGUGAGC` — result for “RBNS enrichment (R)”: 0.944.
Under “RBNS enrichment (R)”, `AUAUCAAGUAACAAUAUGAUUAUUAUUUUUUUAUUCCCCCAAAGCGGGCUUGCUGCUUCACCCUUGGGGAUGAAAUAAUGGAAGCUGGUUAAAGUGGAUGAGGUUGGAAA` is recorded as 0.431.
For `UGUAAAUGUGCCAUGCUCUGGUGGUGUGGGCAGUCAAUUAUUGUUAGAAUCUUUACCAAAGAUCUGGAGUUAGGGUAGCCUUUCUAUUUUAGUACUGAACUCCUGUGCCC`, “RBNS enrichment (R)” read 0.291.
`AUCUCAAUCGUUGCUGAAUCCUUUCAUAUCCUAAUAGGAAUUAACCUCCAAAUAAAACAUGACUGGUCGUGUGCUGAUUGCCUGCCUGUCUGCCGUAGCCAUUAUCCCAU`: “RBNS enrichment (R)” 0.568.
`AUUAUAGGAUUUGUAUUUUCUCCUUUUUUUUCCCCCUUCCAUUCCUUCUCCCCUCUUGCAUUCAAGAUUAUGAAACUUUGCUAUGGGCCCUGCACUUCCUUUGCUUCCUC` — result for “RBNS enrichment (R)”: 1.44.
`CAAUACUGAGAUUGCAAAACUGAAGCUUGACAAGUGUGUGGAAGACCCUGGCUCAAGUUCCAGCACUGGAAAGACCAAAGUGCAAACGUGCAUGGGAGGAGUGAGGGUAA` — result for “RBNS enrichment (R)”: 5.6.
`CACAGUGCAUUGUUUUUCUACCUGCUUGUCUUAUUUUUAGAAUAAUUUAGAAAAACAACAAAGGCUGUUUUUCCUAAUUUUGGCAUGAACCCCUUGUUCCAAGUGAAGGC` — result for “RBNS enrichment (R)”: 1.47.

A few entries again (series 4):
For `CCUGGACAACAAGAGCGAAACUCCGUCUUAGAAGUGGACCAGGACAGGACCAGAUUUUGGAGUCAUGGUCCGGUGUCCUUUUCACUACACCAUGUUUGAGCUCAGACCCC`, “RBNS enrichment (R)” read 0.333.
`CAAGGAGGCUCUGCACAGCUCACUUGUGGGGAAGACGGGACAUGCUUCCAGAUUUUCUUUGGGGGUUAGAAGGUCGGAUGUGGAGUUGACACUUGUUAGUCUCUGUGAGC` — result for “RBNS enrichment (R)”: 0.944.
Under “RBNS enrichment (R)”, `AUAUCAAGUAACAAUAUGAUUAUUAUUUUUUUAUUCCCCCAAAGCGGGCUUGCUGCUUCACCCUUGGGGAUGAAAUAAUGGAAGCUGGUUAAAGUGGAUGAGGUUGGAAA` is recorded as 0.431.
For `UGUAAAUGUGCCAUGCUCUGGUGGUGUGGGCAGUCAAUUAUUGUUAGAAUCUUUACCAAAGAUCUGGAGUUAGGGUAGCCUUUCUAUUUUAGUACUGAACUCCUGUGCCC`, “RBNS enrichment (R)” read 0.291.
`AUCUCAAUCGUUGCUGAAUCCUUUCAUAUCCUAAUAGGAAUUAACCUCCAAAUAAAACAUGACUGGUCGUGUGCUGAUUGCCUGCCUGUCUGCCGUAGCCAUUAUCCCAU`: “RBNS enrichment (R)” 0.568.
`AUUAUAGGAUUUGUAUUUUCUCCUUUUUUUUCCCCCUUCCAUUCCUUCUCCCCUCUUGCAUUCAAGAUUAUGAAACUUUGCUAUGGGCCCUGCACUUCCUUUGCUUCCUC` — result for “RBNS enrichment (R)”: 1.44.
`CAAUACUGAGAUUGCAAAACUGAAGCUUGACAAGUGUGUGGAAGACCCUGGCUCAAGUUCCAGCACUGGAAAGACCAAAGUGCAAACGUGCAUGGGAGGAGUGAGGGUAA` — result for “RBNS enrichment (R)”: 5.6.
`CACAGUGCAUUGUUUUUCUACCUGCUUGUCUUAUUUUUAGAAUAAUUUAGAAAAACAACAAAGGCUGUUUUUCCUAAUUUUGGCAUGAACCCCUUGUUCCAAGUGAAGGC` — result for “RBNS enrichment (R)”: 1.47.
